Assay results of several laboratories.
Values joined by “and” are separate records of one study, mostly repeats; a detail may differ.
Target: AP2-associated protein kinase 1 (AAK1, Homo sapiens, UniProt Q2M2I8)

Structure (SMILES) | assay | test system | conditions | how to read | quantity | value
C=CC(=O)N1Cc2nc(-c3cc(-c4cc(Cl)cnc4Cl)c(F)cc3F)n(-c3ccncn3)c2C1 | cell-free assay, inhibitor | – | 1 µM | – | inhibition | 0.9%
COc1c(Cl)cccc1Nc1c(-c2ccncc2C#C[C@@]2(C)CCCN2C(=O)/C=C/CN(C)C)[nH]c2c1C(=O)NCC2 | binding, competition with immobilised ligand | – | 3 µM | – | remaining binding | 98%
COc1cc(Nc2nccc(-c3cnn4nc(OC)ccc34)n2)cc(C(F)(F)F)c1 | binding, competition with immobilised ligand | – | 1 µM | – | remaining binding | 90%
O=C(Cc1ccc(OCc2ccccc2)cc1)NC1(C(=O)O)CCN(C(=O)c2ccc(-c3cccc(Cl)c3)cc2)CC1 | enzyme activity, inhibitor | – | 10 µM | – | activity vs control | 109%
Cc1cnc2nc1Nc1cccc(c1)COC/C=C/COCc1cc(ccc1OCCN1CCOCC1)N2 | binding | – | 0.1 µM | – | remaining binding | 100%
CNC(=O)C1CCN(c2cc(C)c(F)cc2NC(=O)c2ccc(-c3cc(O)ccc3C)c(C)c2)CC1 | binding, competition with immobilised ligand | – | 1 µM | – | remaining binding | 84%
CCN1CCN(Cc2ccc(C(=O)Nc3ccc(C)c(NCc4cnc5[nH]ccc5c4OC)c3)cc2C(F)(F)F)CC1 | binding, competition with immobilised ligand | – | 1 µM | – | remaining binding | 100%
CNC1C[S+]2CC[S+]3CC[S+](C1)[Ru-4]321([N]=C=S)[n]2c3ccc(OC)cc3c3c4c(c5cc(F)c[n+]1c5c32)C(=O)NC4=O (centres unmarked) | KinomeScan | – | 0.1 µM | baseline: untreated | remaining binding | 100%
CCn1cc(C(=O)O)c(=O)c2c(N)c(F)c(NC3CCCCC3)cc21 | kinase activity | – | 0.1 µM, added: ATP at Km | – | inhibition | -10.2%
Nc1ncc2c(n1)-c1c([nH]c3ccc(C4=CCOCC4)cc13)CCC2 | binding, competition with immobilised ligand | – | 1 µM | – | remaining binding | 100%
CN1CCN(Cc2ccc(-c3ccc(CO[C@H]4CCC[C@@H]4NC(=O)c4cc(-c5cnn(C)c5)cnc4N)cc3)cc2)CC1 | enzyme activity, inhibitor | – | 0.1 µM | – | inhibition | 3%
Cc1ccc(-c2c(/C=C(\C#N)C(=O)NC(C)C)n(CCCO)c3ncnc(N)c23)cc1 | cell-free assay, competition with immobilised ligand | – | 1 µM | – | remaining binding | 100%
CC(C)=CC1OC(C)(C)C2C=C3C(=O)C(Cl)=CC(O)C3C3C(O)C4OC4C(=O)C132 (centres unmarked) | cell-free assay, competition with immobilised ligand | – | 10 µM | – | remaining binding | 95%
C=CC(=O)N1CCCC(n2c(=O)c3ncccc3n(Cc3ccc(Oc4ccccc4)cc3)c2=O)C1 (centres unmarked) | cell-free assay, competition with immobilised ligand | – | 1 µM | – | remaining binding | 98%
COc1cc(Nc2nc(C)cc(-c3cnn4nc(OC)ccc34)n2)cc(C(F)(F)F)c1 | inhibitor | – | 1 µM | baseline: control | remaining activity | 96%
C=CC(=O)N1CCc2ccc(-n3c(=O)ccc4cnc5ccc(-c6cnn(C)c6)cc5c43)cc21 | KINOMEscan | – | 1 µM | baseline: DMSO control | remaining binding | 63%
N[C@H]1CC[C@H](Nc2nccc(-c3cccnc3Oc3ccc(NC(=O)NC4CC4)c4ccccc34)n2)CC1 | kinobead competition pulldown | HEK293/HCT116 lysate mixture | 10 µM, 1 h, 4 °C | lower = stronger competition | log2 LFQ intensity | 28.9 and 28.7 and 28.8

A few entries again:
Structure (SMILES) | assay | test system | conditions | how to read | quantity | value
COc1c(Cl)cccc1Nc1c(-c2ccncc2C#C[C@@]2(C)CCCN2C(=O)/C=C/CN(C)C)[nH]c2c1C(=O)NCC2 | binding, competition with immobilised ligand | – | 3 µM | – | remaining binding | 98%
CNC1C[S+]2CC[S+]3CC[S+](C1)[Ru-4]321([N]=C=S)[n]2c3ccc(OC)cc3c3c4c(c5cc(F)c[n+]1c5c32)C(=O)NC4=O (centres unmarked) | KinomeScan | – | 0.1 µM | baseline: untreated | remaining binding | 100%
